Published values collected from several papers.
Numbered parts are unrelated; each lists some results of a single study. Changes are numbered by the printed parent chain.
UniProt Q8N568, sequence (whole entry, looked up): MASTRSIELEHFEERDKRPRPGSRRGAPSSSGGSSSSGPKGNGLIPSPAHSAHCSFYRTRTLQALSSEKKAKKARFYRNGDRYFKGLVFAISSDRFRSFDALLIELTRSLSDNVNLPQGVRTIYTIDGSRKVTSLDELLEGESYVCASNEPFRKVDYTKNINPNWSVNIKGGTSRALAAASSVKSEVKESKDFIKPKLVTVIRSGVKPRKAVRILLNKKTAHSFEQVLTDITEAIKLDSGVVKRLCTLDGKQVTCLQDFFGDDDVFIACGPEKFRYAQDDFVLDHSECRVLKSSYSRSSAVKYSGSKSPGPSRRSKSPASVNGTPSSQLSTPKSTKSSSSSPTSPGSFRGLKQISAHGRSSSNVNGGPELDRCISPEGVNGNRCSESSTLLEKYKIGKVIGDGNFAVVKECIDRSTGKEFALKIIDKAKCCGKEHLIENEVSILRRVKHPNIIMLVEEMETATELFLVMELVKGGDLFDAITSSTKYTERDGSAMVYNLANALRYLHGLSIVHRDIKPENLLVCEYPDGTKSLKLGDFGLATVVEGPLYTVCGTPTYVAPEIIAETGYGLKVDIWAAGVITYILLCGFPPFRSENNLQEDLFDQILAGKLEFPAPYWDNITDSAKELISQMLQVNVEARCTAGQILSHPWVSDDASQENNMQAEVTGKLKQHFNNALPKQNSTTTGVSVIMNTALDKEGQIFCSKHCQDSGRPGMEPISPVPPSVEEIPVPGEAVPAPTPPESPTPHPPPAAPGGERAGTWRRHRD
UniProt P49761, sequence (whole entry, looked up): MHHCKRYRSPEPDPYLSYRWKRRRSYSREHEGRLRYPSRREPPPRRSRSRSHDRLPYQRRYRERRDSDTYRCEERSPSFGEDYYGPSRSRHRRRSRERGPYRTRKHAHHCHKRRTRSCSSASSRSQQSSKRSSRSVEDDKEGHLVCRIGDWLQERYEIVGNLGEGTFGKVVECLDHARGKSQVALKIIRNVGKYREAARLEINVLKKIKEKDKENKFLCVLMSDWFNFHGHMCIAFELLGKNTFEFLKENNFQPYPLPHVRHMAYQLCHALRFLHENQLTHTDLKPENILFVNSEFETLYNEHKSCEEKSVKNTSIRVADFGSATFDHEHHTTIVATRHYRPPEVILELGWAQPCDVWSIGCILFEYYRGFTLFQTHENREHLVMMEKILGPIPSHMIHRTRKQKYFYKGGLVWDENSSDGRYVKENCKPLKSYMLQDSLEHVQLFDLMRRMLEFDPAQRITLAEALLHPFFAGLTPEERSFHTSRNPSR
UniProt P35968, sequence (whole entry, looked up): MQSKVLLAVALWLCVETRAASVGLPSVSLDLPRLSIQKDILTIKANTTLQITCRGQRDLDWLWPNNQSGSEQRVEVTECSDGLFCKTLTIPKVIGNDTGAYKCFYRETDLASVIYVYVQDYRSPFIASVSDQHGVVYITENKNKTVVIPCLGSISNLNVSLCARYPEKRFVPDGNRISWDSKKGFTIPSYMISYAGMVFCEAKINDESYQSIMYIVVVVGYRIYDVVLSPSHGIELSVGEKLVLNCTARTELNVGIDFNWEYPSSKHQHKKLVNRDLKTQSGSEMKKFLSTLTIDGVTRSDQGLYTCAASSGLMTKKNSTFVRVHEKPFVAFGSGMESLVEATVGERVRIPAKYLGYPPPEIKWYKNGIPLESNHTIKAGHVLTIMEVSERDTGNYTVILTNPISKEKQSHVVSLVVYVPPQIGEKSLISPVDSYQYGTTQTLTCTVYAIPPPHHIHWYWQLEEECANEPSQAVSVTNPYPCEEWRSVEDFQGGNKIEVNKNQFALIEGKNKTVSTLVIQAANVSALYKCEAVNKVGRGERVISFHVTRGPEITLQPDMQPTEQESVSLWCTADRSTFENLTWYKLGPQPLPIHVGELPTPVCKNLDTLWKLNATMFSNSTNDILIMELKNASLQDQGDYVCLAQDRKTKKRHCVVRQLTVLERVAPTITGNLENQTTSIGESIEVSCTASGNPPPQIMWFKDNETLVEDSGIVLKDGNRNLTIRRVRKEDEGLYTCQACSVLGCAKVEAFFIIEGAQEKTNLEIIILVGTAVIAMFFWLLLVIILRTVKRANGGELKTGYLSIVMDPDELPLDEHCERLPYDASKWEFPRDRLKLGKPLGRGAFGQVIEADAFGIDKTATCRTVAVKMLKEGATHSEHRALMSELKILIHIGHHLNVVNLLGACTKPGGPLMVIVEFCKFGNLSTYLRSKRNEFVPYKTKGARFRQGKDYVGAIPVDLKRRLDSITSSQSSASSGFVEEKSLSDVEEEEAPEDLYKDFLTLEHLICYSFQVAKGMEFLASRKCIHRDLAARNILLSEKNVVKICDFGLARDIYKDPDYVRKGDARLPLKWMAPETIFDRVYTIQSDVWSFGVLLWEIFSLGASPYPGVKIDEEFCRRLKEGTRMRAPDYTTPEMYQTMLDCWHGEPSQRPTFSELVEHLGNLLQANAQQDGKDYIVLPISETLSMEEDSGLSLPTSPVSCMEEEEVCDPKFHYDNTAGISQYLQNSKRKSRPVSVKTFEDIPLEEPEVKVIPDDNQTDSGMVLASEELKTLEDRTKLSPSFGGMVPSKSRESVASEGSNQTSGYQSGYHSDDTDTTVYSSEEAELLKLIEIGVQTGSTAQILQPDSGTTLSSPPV
UniProt Q07002, sequence (whole entry, looked up): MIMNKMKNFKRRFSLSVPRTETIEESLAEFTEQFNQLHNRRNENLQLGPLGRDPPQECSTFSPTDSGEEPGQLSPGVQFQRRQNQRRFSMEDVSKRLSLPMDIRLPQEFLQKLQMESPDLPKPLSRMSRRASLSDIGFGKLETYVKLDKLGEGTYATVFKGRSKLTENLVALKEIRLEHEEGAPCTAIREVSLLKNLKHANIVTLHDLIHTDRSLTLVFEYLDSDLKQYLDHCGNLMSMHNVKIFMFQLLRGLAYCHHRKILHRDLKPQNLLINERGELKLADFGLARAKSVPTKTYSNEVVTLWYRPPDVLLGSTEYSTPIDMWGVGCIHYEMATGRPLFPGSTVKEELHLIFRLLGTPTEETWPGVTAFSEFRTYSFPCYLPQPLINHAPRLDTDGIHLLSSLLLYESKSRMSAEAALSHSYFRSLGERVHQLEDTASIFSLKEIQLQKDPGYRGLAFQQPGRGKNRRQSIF
UniProt Q92630, sequence (whole entry, looked up): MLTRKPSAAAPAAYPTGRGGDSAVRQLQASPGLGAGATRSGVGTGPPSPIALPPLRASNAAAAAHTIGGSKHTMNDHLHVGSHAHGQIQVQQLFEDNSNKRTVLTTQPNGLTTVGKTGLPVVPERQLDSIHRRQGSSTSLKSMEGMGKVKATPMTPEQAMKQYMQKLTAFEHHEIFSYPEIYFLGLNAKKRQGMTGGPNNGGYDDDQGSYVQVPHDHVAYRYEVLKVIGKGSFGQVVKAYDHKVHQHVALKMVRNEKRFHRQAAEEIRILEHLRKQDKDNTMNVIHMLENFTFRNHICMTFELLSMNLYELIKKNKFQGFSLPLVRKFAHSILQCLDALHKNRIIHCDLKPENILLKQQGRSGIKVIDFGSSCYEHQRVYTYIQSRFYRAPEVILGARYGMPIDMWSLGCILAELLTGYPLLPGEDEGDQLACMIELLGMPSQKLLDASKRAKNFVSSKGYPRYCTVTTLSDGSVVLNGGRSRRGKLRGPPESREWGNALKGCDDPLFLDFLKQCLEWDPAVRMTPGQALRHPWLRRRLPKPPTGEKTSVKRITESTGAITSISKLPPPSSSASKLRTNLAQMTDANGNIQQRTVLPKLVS
UniProt P50750, sequence (whole entry, looked up): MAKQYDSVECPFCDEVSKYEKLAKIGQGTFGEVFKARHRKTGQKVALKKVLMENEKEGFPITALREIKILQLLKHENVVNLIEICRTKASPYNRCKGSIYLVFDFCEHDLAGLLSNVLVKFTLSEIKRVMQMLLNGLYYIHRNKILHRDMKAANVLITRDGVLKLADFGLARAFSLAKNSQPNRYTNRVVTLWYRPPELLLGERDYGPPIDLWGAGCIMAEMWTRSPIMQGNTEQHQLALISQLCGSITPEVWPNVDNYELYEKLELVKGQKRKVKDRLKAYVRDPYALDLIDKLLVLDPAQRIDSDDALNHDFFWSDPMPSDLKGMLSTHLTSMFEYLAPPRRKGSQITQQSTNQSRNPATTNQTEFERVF
UniProt Q96L34, sequence (whole entry, looked up): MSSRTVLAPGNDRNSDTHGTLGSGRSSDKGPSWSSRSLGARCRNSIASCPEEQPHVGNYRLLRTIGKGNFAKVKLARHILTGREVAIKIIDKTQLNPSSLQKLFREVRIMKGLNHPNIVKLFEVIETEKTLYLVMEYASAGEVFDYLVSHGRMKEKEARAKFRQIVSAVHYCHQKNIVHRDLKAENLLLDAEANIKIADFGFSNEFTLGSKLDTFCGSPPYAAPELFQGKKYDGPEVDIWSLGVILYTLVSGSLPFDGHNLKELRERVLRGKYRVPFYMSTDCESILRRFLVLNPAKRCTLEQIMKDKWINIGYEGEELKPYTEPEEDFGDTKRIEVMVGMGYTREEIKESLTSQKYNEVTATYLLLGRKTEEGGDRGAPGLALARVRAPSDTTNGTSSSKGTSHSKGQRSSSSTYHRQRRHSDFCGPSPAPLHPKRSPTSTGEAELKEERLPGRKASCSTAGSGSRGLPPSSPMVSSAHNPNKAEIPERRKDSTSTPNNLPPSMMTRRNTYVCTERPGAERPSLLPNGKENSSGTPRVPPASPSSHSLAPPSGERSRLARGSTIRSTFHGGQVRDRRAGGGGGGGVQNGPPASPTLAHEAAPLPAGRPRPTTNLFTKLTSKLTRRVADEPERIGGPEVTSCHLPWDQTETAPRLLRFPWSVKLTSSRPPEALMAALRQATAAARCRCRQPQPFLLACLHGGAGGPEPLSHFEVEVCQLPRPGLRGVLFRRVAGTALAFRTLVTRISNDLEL

Block 1
SMILES: O=C1NC(=O)c2c1c1c3ccccc3[nH]c1n1cncc21
Observed: enzyme activity
Action: inhibitor
Tested at: 0.5 µM
Relative to: control
target	remaining activity
G protein-coupled receptor kinase 4 (GRK4, Homo sapiens, UniProt P32298)	101%
Serine/threonine-protein kinase DCLK2 (DCLK2, Homo sapiens, UniProt Q8N568)	82.3%
Cyclin-dependent kinase 9, with cyclin K (CDK9, Homo sapiens, UniProt P50750)	83.8%
Dual specificity protein kinase CLK3 (CLK3, Homo sapiens, UniProt P49761)	48.2%
Serine/threonine-protein kinase Nek3 (NEK3, Homo sapiens, UniProt P51956)	89.3%
Calcium/calmodulin-dependent protein kinase type 1B (PNCK, Homo sapiens, UniProt Q6P2M8)	105%
Serine/threonine-protein kinase PAK 3 (PAK3, Homo sapiens, UniProt O75914)	100%
Serine/threonine-protein kinase MARK2 (MARK2, Homo sapiens, UniProt Q7KZI7)	34.7%
MAP/microtubule affinity-regulating kinase 4 (MARK4, Homo sapiens, UniProt Q96L34)	26.8%
Vascular endothelial growth factor receptor 2 (KDR, Homo sapiens, UniProt P35968)	66.6%
Discoidin domain-containing receptor 2 (DDR2, Homo sapiens, UniProt Q16832)	96.5%
Dual specificity protein kinase CLK4 (CLK4, Homo sapiens, UniProt Q9HAZ1)	99%
Dual specificity mitogen-activated protein kinase kinase 1 (MAP2K1, Homo sapiens, UniProt Q02750)	102%

Block 2
Target: CRIPT, C-terminal peptide
Technique: DHFR complementation, deep sequencing
Matrix: yeast
Notes: single substitutions, model-inferred values
Relative to: wild type
Reading: higher = weaker binding
Starting sequence: ERBIN, PDZ domain 1 (human); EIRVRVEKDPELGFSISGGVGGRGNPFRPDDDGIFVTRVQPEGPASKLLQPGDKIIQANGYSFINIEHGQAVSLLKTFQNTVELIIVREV; partner TKNYKQTSV
Substitution	binding free energy change
N65F	0.122 kcal/mol
P26L	1.02 kcal/mol
N25Q	0.694 kcal/mol
A45D	0.0612 kcal/mol
F35E	0.515 kcal/mol
K8R	0.373 kcal/mol
G24E	1.41 kcal/mol
F27V	0.784 kcal/mol

Block 3
SMILES: CC(=O)Nc1c(C(C)=O)c(=O)n(C)c2nc(-c3ccc(Cl)cc3Cl)c(-c3ccc(Cl)cc3)cc12
Observed: cell-free assay
Technique: competition with immobilised ligand
Tested at: 1 µM
target	remaining binding
Phosphatidylinositol 4-phosphate 5-kinase type-1 gamma (PIP5K1C, Homo sapiens, UniProt O60331)	100%
Dual specificity tyrosine-phosphorylation-regulated kinase 2 (DYRK2, Homo sapiens, UniProt Q92630)	100%
Cyclin-dependent kinase 18 (CDK18, Homo sapiens, UniProt Q07002)	100%
Mitogen-activated protein kinase kinase kinase 20 (MAP3K20, Homo sapiens, UniProt Q9NYL2)	100%
Calcium/calmodulin-dependent protein kinase type 1G (CAMK1G, Homo sapiens, UniProt Q96NX5)	100%

Block 4
Organism: Plasmodium berghei
Action: inhibitor
Cell line: Huh-7
Strain: GFP-expressing, liver stage
Tested at: 10 µM
Time: 24 h
Relative to: untreated control
SMILES	infection rate [%]
CC(=O)[C@H]1CC[C@H]2[C@@H]3CCC4=CC(=O)CC[C@]4(C)[C@H]3CC[C@]12C	70
CC(CN(C)C)CN1c2ccccc2CCc2ccccc21 (centres unmarked)	85
CCCc1nc(C(C)(C)O)c(C(=O)OCc2oc(=O)oc2C)n1Cc1ccc(-c2ccccc2-c2nnn[nH]2)cc1	81.2
NC(=O)N1c2ccccc2CC(=O)c2ccccc21	99.8

Mixed results
Compound	cell line	test	setting	endpoint	value
C=CC(=O)Nc1cccc(Nc2nc(Nc3ccc(N4CCN(C(C)=O)CC4)cc3OC)ncc2C(F)(F)F)c1	A-375	–	100 µM, 60 h	viability	6.01%
Cc1cc2c(C(N)=O)c(N)n(-c3c(C)ccc(O)c3C)c2nc1C	HCT-116	MEK phosphorylation, paradoxical activator, item: phospho-MEK	–	EC50	30.2 nM

Excerpt of the above (block 2):
Substitution	binding free energy change
N25Q	0.694 kcal/mol
K8R	0.373 kcal/mol
P26L	1.02 kcal/mol
F35E	0.515 kcal/mol
F27V	0.784 kcal/mol
